Published values pooled from the literature.
Protocols differ between the studies behind these lines. Numbers after ± are the reported error.

SMILES | test system | setting | AUC(0-inf)
Cc1ccc(NC(=O)c2ccc(CN3CCN(C)CC3)cc2)cc1Nc1nccc(-c2cncc(-c3oncc3C)c2)n1 | older healthy human adults, plasma | oral, 37.5 mg single dose, fed, mean | 30900 ng·h/mL
CO[C@H]1C[C@@H]2CC[C@@H](C)[C@@](O)(O2)C(=O)C(=O)N2CCCC[C@H]2C(=O)O[C@H]([C@H](C)C[C@@H]2CC[C@@H](O)[C@H](OC)C2)CC(=O)[C@H](C)/C=C(\C)[C@@H](O)[C@@H](OC)C(=O)[C@H](C)C[C@H](C)/C=C/C=C/C=C/1C | human, whole blood | oral, 20 mg, added: grapefruit juice | 2800 ng·h/mL
CCCC[C@H](NC(C)=O)C(=O)N[C@H]1CCC(=O)NC[C@@H](C(=O)N[C@@H](Cc2c[nH]c3ccccc23)C(N)=O)NC(=O)[C@H](CCCNC(=N)N)NC(=O)[C@@H](Cc2ccccc2)NC(=O)[C@H](Cc2c[nH]cn2)NC1=O | healthy human, both sexes, plasma | subcutaneous, 1.0 mg once daily, day 7, geometric mean | 54.3 ng·h/mL
C=CC(=O)Nc1cc(Nc2ncc(C(=O)OC(C)C)c(-c3cn(C)c4ccccc34)n2)c(OC)cc1N(C)CCN(C)C | human, fasted | oral, 120 mg single dose, geometric mean | 456 ng·h/mL
CC(C)NC[C@@H](C(=O)N1CCN(c2ncnc3c2[C@H](C)C[C@H]3O)CC1)c1ccc(Cl)cc1 | human, mild hepatic impairment (Child-Pugh), plasma | oral, 100 mg single dose, geometric mean | 322 ng·h/mL
CN(Cc1cnc2nc(N)nc(N)c2n1)c1ccc(C(=O)N[C@@H](CCC(=O)O)C(=O)O)cc1 | human | oral, 7.5 mg single dose, day 8, added: isavuconazole 200 mg once daily | 600 ng·h/mL
CC(=O)O[C@H]1C(=O)[C@@]2(C)[C@H]([C@H](OC(=O)c3ccccc3)[C@]3(O)C[C@H](OC(=O)[C@H](O)[C@@H](NC(=O)c4ccccc4)c4ccccc4)C(C)=C1C3(C)C)[C@]1(OC(C)=O)CO[C@@H]1C[C@@H]2O | human patients, plasma | intravenous, 80 mg/m^2, day 8, geometric mean, added: onalespib 150 mg/m^2 | 6.5 ± 0.575 µM·h
CCOc1cc([C@@H](CS(C)(=O)=O)N2C(=O)c3cccc(NC(C)=O)c3C2=O)ccc1OC | healthy human, both sexes, plasma | oral, 30 mg single dose, added: rifampicin 600 mg oral once daily, dose 14 | 912 ng·h/mL
C=C(C)[C@@H]1CC[C@]2(NCCN3CCS(=O)(=O)CC3)CC[C@]3(C)[C@H](CC[C@@H]4[C@@]5(C)CC=C(C6=CC[C@@](CF)(C(=O)O)CC6)C(C)(C)[C@@H]5CC[C@]43C)[C@@H]12 | healthy human volunteers | oral, 200 mg, tablet, moderate-fat meal, arithmetic mean | 39400 ng·h/mL

Repeated from above:
SMILES | test system | setting | AUC(0-inf)
CO[C@H]1C[C@@H]2CC[C@@H](C)[C@@](O)(O2)C(=O)C(=O)N2CCCC[C@H]2C(=O)O[C@H]([C@H](C)C[C@@H]2CC[C@@H](O)[C@H](OC)C2)CC(=O)[C@H](C)/C=C(\C)[C@@H](O)[C@@H](OC)C(=O)[C@H](C)C[C@H](C)/C=C/C=C/C=C/1C | human, whole blood | oral, 20 mg, added: grapefruit juice | 2800 ng·h/mL
